Published values collected from several papers.
Each numbered part is a random draw from the data of one study; scales do not carry over between parts. Several values in a cell are separate wells, animals, samples, runs or records.
Sequence of UniProt Q16853 (whole entry, looked up): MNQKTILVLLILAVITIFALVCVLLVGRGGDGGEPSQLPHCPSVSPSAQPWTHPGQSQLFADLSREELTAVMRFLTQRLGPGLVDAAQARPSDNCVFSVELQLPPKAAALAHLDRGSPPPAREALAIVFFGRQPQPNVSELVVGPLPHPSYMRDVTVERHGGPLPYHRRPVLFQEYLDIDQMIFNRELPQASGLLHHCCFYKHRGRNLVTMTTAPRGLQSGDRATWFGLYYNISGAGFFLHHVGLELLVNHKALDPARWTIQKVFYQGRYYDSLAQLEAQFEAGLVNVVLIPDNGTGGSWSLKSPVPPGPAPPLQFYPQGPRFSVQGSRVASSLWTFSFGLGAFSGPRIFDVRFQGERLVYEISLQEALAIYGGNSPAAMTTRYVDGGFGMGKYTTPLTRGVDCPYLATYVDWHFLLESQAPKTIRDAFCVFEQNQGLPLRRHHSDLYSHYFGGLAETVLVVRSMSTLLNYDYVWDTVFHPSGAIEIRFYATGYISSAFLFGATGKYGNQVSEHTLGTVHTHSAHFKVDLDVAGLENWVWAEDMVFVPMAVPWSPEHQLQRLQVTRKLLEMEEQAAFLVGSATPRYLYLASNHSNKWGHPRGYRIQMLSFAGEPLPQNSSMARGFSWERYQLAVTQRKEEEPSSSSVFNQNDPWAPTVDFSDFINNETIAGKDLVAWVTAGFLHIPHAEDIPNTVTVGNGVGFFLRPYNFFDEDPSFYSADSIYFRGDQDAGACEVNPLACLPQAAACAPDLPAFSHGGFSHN

Study 1 — route: oral
Compound: CC(C)C[C@@H]1NC(=O)[C@@H](N(C)C(=O)[C@@H](NC(=O)[C@@H]2C[C@@H](F)CN2C(=O)C2(C(F)(F)F)CC(F)(F)C2)C2CC2)CCCCCCCN(C)C(=O)[C@H](Cc2cc(Cl)cnc2OC2CC2)N(C)C1=O
test system | conditions | tumour volume
NSG mice, sample B SCLC PDX | 100 mg/kg twice daily, day 29 | 254 mm3 and 289 mm3 and 264 mm3 and 232 mm3 and 240 mm3
NSG mice, sample B SCLC PDX | 100 mg/kg twice daily, day 1 | 213 mm3 and 180 mm3 and 173 mm3 and 176 mm3 and 168 mm3
NSG mice, sample B SCLC PDX | 100 mg/kg twice daily, day 8 | 286 mm3 and 215 mm3 and 185 mm3 and 205 mm3 and 181 mm3
mouse, sample A SCLC PDX | 100 mg/kg three times daily, day 21 | 185 mm3 and 220 mm3 and 192 mm3 and 291 mm3 and 328 mm3
mouse, sample A SCLC PDX | 100 mg/kg three times daily, day 25 | 468 mm3 and 297 mm3 and 243 mm3 and 346 mm3 and 221 mm3

Study 2 — SMILES: O=c1[nH]c(=S)n(C[C@H]2CCCO2)c2nc[nH]c12; read-out: enzyme activity
MPO: Myeloperoxidase (MPO, Homo sapiens, UniProt P05164)
Sequence of UniProt P05164 (whole entry, looked up): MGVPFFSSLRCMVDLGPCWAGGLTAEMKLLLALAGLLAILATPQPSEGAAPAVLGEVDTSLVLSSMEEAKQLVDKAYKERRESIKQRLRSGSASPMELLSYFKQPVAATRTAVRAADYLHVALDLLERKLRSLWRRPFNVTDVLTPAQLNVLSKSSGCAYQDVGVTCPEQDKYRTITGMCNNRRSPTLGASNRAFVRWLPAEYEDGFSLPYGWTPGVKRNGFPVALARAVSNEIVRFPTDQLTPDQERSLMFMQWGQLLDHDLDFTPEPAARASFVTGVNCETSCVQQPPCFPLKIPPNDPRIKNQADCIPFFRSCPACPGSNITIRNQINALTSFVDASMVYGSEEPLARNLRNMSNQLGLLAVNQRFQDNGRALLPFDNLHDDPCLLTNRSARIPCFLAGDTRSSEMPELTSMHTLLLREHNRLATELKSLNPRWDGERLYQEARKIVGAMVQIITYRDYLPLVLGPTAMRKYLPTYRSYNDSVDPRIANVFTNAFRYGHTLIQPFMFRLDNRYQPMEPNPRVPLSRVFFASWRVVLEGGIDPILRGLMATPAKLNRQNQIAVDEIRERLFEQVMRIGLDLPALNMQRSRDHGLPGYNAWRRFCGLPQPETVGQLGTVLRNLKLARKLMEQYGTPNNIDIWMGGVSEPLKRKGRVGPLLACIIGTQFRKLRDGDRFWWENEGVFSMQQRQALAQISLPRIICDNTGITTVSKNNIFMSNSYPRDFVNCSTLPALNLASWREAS
target | test | conditions | inhibition
MPO |  | 0.0046 µM | 11.2% and 12.7% and -16.8% and -8.33% and -0.876%
MPO |  | 0.0412 µM | 18.9% and 29.5% and 14.3% and 16.2% and 54.7% and 17% and 30.6%
Amine oxidase [copper-containing] 3 (AOC3, Homo sapiens, UniProt Q16853) | inhibitor, fluorescence | 0.1111 µM | -22.8%
MPO |  | 0.0005 µM | -15.1% and -31.2% and -9.72% and -8.91% and -0.666% and -17.9% and -24.9%
MPO |  | 5 µM | 99.8% and 99.7% and 99.6% and 100%

Study 3 — Compound: CCCNC(=O)COc1cc(C)c(Cl)c(C)c1; action: inhibitor; cell line: CHO-BC cells; notes: unit not given
Target: Sodium-dependent neutral amino acid transporter B(0)AT1 (SLC6A19, Homo sapiens, UniProt Q695T7)
Sequence of UniProt Q695T7 (whole entry, looked up): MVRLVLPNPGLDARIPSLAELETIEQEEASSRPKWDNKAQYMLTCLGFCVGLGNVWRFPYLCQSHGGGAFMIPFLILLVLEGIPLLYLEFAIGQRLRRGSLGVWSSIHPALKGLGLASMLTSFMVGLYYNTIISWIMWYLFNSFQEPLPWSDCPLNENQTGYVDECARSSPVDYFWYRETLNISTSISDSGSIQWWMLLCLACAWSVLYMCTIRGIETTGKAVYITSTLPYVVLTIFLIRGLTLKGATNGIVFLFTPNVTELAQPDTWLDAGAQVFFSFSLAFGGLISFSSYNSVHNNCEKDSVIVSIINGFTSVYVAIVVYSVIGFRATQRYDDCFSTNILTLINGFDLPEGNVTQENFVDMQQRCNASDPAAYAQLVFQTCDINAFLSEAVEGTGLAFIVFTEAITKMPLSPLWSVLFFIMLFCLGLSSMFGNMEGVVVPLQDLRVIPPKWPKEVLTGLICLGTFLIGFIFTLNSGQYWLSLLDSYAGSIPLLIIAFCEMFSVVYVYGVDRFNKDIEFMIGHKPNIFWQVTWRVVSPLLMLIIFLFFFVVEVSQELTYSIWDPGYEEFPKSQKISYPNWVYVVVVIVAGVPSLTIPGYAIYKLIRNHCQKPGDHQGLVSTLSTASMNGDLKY
test | conditions | how to read | remaining transport activity
FLIPR membrane potential | 0.3 µM | baseline: no inhibitor | 1.02
L-[14C]leucine uptake | 1 µM, 6 min, added: GPNA 3 mM, JPH203 3 µM | baseline: uninhibited cells | 0.562
L-[14C]leucine uptake | 0.3 µM, 6 min, added: GPNA 3 mM, JPH203 3 µM | baseline: uninhibited cells | 0.724
L-[14C]leucine uptake | 0.01 µM, 6 min, added: GPNA 3 mM, JPH203 3 µM | baseline: uninhibited cells | 0.888
L-[14C]leucine uptake | 0.1 µM, 6 min, added: GPNA 3 mM, JPH203 3 µM | baseline: uninhibited cells | 0.85
L-[14C]leucine uptake | 3 µM, 6 min, added: GPNA 3 mM, JPH203 3 µM | baseline: uninhibited cells | 0.485
L-[14C]leucine uptake | 0.03 µM, 6 min, added: GPNA 3 mM, JPH203 3 µM | baseline: uninhibited cells | 0.846
L-[14C]leucine uptake | 0.003 µM, 6 min, added: GPNA 3 mM, JPH203 3 µM | baseline: uninhibited cells | 0.961

Further values, each from its own experiment
Structure (SMILES) | test system | conditions | quantity | result
Cn1cc(-c2cccc(CN3CCC4(CC3)COc3c4ccc4c3CN([C@H]3CCC(=O)NC3=O)C4=O)c2)cn1 | Crbn I391V mouse, MC-38 tumour | 30 mg/kg, day 4, added: anti-LAG3 antibody 10 mg/kg weekly | body weight change | -3.8% and -6.3% and -7% and -5.7% and -5.5%

A few entries again (study 1):
test system | conditions | tumour volume
mouse, sample A SCLC PDX | 100 mg/kg three times daily, day 25 | 468 mm3 and 297 mm3 and 243 mm3 and 346 mm3 and 221 mm3
NSG mice, sample B SCLC PDX | 100 mg/kg twice daily, day 1 | 213 mm3 and 180 mm3 and 173 mm3 and 176 mm3 and 168 mm3
mouse, sample A SCLC PDX | 100 mg/kg three times daily, day 21 | 185 mm3 and 220 mm3 and 192 mm3 and 291 mm3 and 328 mm3
